# Experimental data of several laboratories.
# Parts stem from different laboratories: compare values within a part only. “And” joins repeats or separate records; there may be more than shown.

# Series 1
# Structure (SMILES): CCN1/C(=C/C=C2\CCCC(/C=C/C3=[N+](CC)c4ccccc4C3(C)C)=C2NCCCCCCCCN2CCC(Nc3nc4ccccc4n3Cc3ccc(F)cc3)CC2)C(C)(C)c2ccccc21
# Cell line: U-87 MG
# Tested at: concentration not given
# Baseline: DMSO
test,log2 fold change
measured: SLC16A5 mRNA,-3.77
measured: ZFY mRNA,1.24
measured: ANKRD1 mRNA,2.71
measured: DNAJC9 mRNA,-0.995
measured: CENPI mRNA,-2.33
measured: RAPGEF6 mRNA,0.872
measured: NFE2L2 mRNA,0.913
measured: P2RY6 mRNA,-4.17
measured: B4GAT1 mRNA,-1.09
measured: NCAPG2 mRNA,-1.48
measured: ITGA4 mRNA,-1.78
measured: TSGA10 mRNA,0.997
measured: TRIM6 mRNA,-1.07
measured: DEPDC1B mRNA,-1.8
measured: NEXN mRNA,-2.32
measured: TCOF1 mRNA,-0.928

# Series 2
# Cell line: HCC1569
# Method: in-cell western
# Measured: CDK1 phospho-Thr14
# Tested at: 111.11 nM
SMILES,pCDK1 (Thr14) level
Cc1ccc(O)c(C)c1-c1cnc2[nH]c(-c3cnc(N4CCC(CN5CCN(c6ccc(NC7CCC(=O)NC7=O)c(F)c6)CC5)CC4)nc3)cc2c1C#N (racemic),56.8% and 65.6%
Cc1ccc(O)c(C)c1-c1cnc2[nH]c(-c3cnc(N4CCC(CN5CCN(c6ccc7c(c6)C(=O)N(C6CCC(=O)NC6=O)C7=O)CC5)CC4)nc3)cc2c1C#N (stereo not shown),72.5% and 73.6%
Cc1ccc(O)c(C)c1-c1cnc2[nH]c(-c3cnc(N4CCC(CCN5CCN(c6ccc7c(c6)C(=O)N(C6CCC(=O)NC6=O)C7=O)CC5)CC4)nc3)cc2c1C#N (racemic),36.4 RLU and 37.7 RLU
Cc1ccc(O)c(C)c1-c1cnc2[nH]c(-c3cnc(N4CCC5(CC4)CC(N4CCN(c6cc7c(cc6F)c(N6CCC(=O)NC6=O)nn7C)CC4)CO5)nc3)cc2c1C#N (racemic),69.5 RLU and 62 RLU
Cc1ccc(O)c(C)c1-c1cnc2[nH]c(-c3cnc(N4CCC(CCN5CCN(c6cc7c(cc6F)c(N6CCC(=O)NC6=O)nn7C)CC5)CC4)nc3)cc2c1C#N,53.1 RLU and 58.4 RLU
Cc1ccc(O)c(C)c1-c1cnc2[nH]c(-c3cnc(N4CCC(CN5CCN(c6c(F)cc(NC7CCC(=O)NC7=O)cc6F)CC5)CC4)nc3)cc2c1C#N (racemic),57.1% and 55.8%

# Series 3
# SMILES: COCC1CC2C(CCC3C(O)CCC32)c2ccc(O)cc21 (stereo not shown)
cell line,test,conditions,how to read,log2 fold change
PANC-1,"microarray, measured: MCM6",100 µM,baseline: untreated,0.199
SK-OV-3,"microarray, measured: CDC25B",100 µM,baseline: untreated,0.171
SK-OV-3,"microarray, measured: AURKA",25 µM,baseline: untreated,0.0108
PANC-1,"DNA microarray, measured: GINS1",100 µM,baseline: untreated cells,0.0802
A549,"DNA microarray, measured: CCL8",25 µM,baseline: untreated cells,0
A549,"microarray, measured: ACTB",100 µM,baseline: untreated,-0.386
PANC-1,"microarray, measured: RFC3",100 µM,baseline: untreated,0.793
SK-OV-3,"DNA microarray, measured: MCM7",100 µM,baseline: untreated cells,-0.37
A549,"microarray, measured: OLIG2",100 µM,baseline: untreated,0
SK-OV-3,"microarray, measured: CCL11",100 µM,baseline: untreated,8.67
SK-OV-3,"DNA microarray, measured: C6",25 µM,baseline: untreated cells,7.37
A549,"DNA microarray, measured: MCM10",100 µM,baseline: untreated cells,-0.42
SK-OV-3,"DNA microarray, measured: CCL1",25 µM,baseline: untreated,2.43
PANC-1,"DNA microarray, measured: KIF20A",25 µM,baseline: untreated cells,0.568 and 0.599 and 0.588 and 0.539 and 0.668
A549,"microarray, measured: ACTB",25 µM,baseline: untreated,-0.302
A549,"microarray, measured: AURKA",100 µM,baseline: untreated,-0.0815

# Series 4
# Compound: C[C@@H]1CN(c2ccc(-c3cc(C(=O)NCCOCCOCCOCCOCCNC(=O)Cn4cc(-c5[nH]cc(C(=O)N[C@@H](CC(N)=O)c6ccc(F)c(Cl)c6)c5-c5ccc(Cl)cc5F)cn4)ccc3F)cc2NC(=O)c2c[nH]c(=O)cc2C(F)(F)F)C[C@H](C)N1C
# Effect on: thermal unfolding
# Method: differential scanning fluorimetry
# Tested at: 5.5 µM
# Reading: higher = more unfolded
# WDR5: WD repeat-containing protein 5 (WDR5, Homo sapiens, UniProt P61964)
# DCAF1: DDB1- and CUL4-associated factor 1 (DCAF1, Homo sapiens, UniProt Q9Y4B6)
# Chain of UniProt Q9Y4B6 (whole entry, looked up): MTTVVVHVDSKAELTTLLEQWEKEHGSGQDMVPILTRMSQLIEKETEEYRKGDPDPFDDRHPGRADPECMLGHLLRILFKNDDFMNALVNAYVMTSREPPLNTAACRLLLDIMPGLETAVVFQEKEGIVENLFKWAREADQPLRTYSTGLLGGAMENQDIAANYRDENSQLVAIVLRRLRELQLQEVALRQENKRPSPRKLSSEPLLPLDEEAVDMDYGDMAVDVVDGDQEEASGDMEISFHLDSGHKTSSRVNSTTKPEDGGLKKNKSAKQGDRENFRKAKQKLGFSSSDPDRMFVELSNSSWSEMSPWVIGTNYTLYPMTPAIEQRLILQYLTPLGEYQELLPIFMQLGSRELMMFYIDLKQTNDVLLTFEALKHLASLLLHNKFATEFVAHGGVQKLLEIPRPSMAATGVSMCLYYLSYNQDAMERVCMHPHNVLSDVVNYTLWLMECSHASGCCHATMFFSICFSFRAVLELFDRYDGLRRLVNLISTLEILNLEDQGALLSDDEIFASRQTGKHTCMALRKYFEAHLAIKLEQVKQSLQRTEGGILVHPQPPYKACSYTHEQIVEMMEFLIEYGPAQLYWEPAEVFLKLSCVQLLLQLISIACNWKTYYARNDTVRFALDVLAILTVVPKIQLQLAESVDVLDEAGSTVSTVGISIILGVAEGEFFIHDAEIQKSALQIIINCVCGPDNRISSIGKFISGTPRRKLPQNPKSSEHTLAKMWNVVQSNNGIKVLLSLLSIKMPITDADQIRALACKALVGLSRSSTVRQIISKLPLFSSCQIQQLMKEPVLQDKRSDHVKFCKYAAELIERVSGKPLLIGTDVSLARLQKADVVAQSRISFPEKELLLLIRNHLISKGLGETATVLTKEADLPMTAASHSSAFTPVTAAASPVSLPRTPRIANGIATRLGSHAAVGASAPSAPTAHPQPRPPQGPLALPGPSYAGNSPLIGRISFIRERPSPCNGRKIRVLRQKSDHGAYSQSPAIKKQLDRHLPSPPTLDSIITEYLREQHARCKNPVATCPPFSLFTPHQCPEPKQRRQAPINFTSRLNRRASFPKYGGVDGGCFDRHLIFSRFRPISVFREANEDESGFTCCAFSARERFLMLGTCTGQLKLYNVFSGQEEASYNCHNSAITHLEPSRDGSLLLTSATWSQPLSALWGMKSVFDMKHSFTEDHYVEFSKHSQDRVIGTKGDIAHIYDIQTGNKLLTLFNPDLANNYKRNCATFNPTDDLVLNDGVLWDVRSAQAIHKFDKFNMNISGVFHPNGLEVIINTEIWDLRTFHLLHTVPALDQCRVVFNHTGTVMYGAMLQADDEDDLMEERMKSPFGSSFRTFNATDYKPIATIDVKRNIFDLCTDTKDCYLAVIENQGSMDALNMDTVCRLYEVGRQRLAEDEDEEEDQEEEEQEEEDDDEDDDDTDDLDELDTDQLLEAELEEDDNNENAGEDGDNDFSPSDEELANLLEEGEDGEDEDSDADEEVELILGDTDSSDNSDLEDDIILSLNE
target,conditions,SYPRO Orange fluorescence [a.u.]
WDR5,40.2 °C,14200
DCAF1,90.81 °C,34300
DCAF1,72.61 °C,51800
DCAF1,76.01 °C,48200
WDR5,84.01 °C,36800
WDR5,48.2 °C,14400
DCAF1,69.61 °C,54800
DCAF1,28.4 °C,7940
DCAF1,83.61 °C,41100
DCAF1,87.21 °C,37700
DCAF1,33.4 °C,8460
